{"data": "Results gathered from unrelated publications", "cell line": "MRC5", "note": "Each line is one published result; not all experiments were run side by side."}
{"Structure (SMILES)": "N#C/C(=C\\c1cn(-c2ccccc2)nc1-c1cccc(Br)c1)c1nc2ccccc2[nH]1", "read-out": "cell growth or viability", "technique": "ATP luminescence", "time": "72 h", "endpoint": "IC50", "value": "> 100 µM"}
{"Structure (SMILES)": "Cc1nn(-c2ccccc2)nc1CNS(=O)(=O)c1cccs1", "read-out": "cell growth or viability", "endpoint": "EC50", "value": "> 50 µM"}
{"Structure (SMILES)": "N#C/C(=C\\c1cn(-c2ccccc2)nc1-c1cccc(Cl)c1)c1nc2ccccc2[nH]1", "read-out": "cell growth or viability", "technique": "ATP luminescence", "time": "72 h", "endpoint": "IC50", "value": "> 100 µM"}
{"Structure (SMILES)": "O=C1C=C(O)C(=O)c2ccccc21", "read-out": "cytotoxicity", "technique": "MTT", "time": "48 h", "endpoint": "IC50", "value": "5 to 118 µM"}
{"Structure (SMILES)": "O=S(=O)(NCc1csc(-c2ccccc2)n1)c1ccc2ccccc2c1", "read-out": "cell growth or viability", "endpoint": "EC50", "value": "> 50 µM"}
{"Structure (SMILES)": "Oc1c(Br)ccc2cccnc12", "read-out": "cell growth or viability", "technique": "MTT", "time": "48 h", "endpoint": "IC50", "value": "22.1 µM"}
{"Structure (SMILES)": "N#C/C(=C\\c1cn(-c2ccccc2)nc1-c1ccc(Cl)cc1)c1nc2ccccc2[nH]1", "read-out": "cell growth or viability", "technique": "ATP luminescence", "time": "72 h", "endpoint": "IC50", "value": "> 100 µM"}
{"Structure (SMILES)": "COc1ccc([C@@H]2CC(=O)c3c(O)cc(O[C@@H]4O[C@H](CO[C@@H]5O[C@@H](C)[C@H](O)[C@@H](O)[C@H]5O)[C@@H](O)[C@H](O)[C@H]4O)cc3O2)cc1O", "read-out": "cell growth or viability", "technique": "MTS", "tested at": "150 µg/mL", "time": "48 h", "endpoint": "viability", "value": "43.4%"}
{"Structure (SMILES)": "O=C1C(Cl)=C(Cl)C(=O)c2c1cccc2[N+](=O)[O-]", "read-out": "cytotoxicity", "technique": "MTT", "time": "48 h", "endpoint": "IC50", "value": "5 to 118 µM"}
{"Structure (SMILES)": "N#Cc1ccc2cccc(O)c2n1", "technique": "MTT", "tested at": "concentration not given", "endpoint": "cytotoxicity", "value": "not toxic"}
{"note": "A few entries again:"}
{"Structure (SMILES)": "O=C1C(Cl)=C(Cl)C(=O)c2c1cccc2[N+](=O)[O-]", "read-out": "cytotoxicity", "technique": "MTT", "time": "48 h", "endpoint": "IC50", "value": "5 to 118 µM"}
